Published values collected from several papers.
Numbered parts are unrelated; each lists some results of a single study. “And” joins repeats or separate records; there may be more than shown.
Chain of UniProt Q05397 (whole entry, looked up): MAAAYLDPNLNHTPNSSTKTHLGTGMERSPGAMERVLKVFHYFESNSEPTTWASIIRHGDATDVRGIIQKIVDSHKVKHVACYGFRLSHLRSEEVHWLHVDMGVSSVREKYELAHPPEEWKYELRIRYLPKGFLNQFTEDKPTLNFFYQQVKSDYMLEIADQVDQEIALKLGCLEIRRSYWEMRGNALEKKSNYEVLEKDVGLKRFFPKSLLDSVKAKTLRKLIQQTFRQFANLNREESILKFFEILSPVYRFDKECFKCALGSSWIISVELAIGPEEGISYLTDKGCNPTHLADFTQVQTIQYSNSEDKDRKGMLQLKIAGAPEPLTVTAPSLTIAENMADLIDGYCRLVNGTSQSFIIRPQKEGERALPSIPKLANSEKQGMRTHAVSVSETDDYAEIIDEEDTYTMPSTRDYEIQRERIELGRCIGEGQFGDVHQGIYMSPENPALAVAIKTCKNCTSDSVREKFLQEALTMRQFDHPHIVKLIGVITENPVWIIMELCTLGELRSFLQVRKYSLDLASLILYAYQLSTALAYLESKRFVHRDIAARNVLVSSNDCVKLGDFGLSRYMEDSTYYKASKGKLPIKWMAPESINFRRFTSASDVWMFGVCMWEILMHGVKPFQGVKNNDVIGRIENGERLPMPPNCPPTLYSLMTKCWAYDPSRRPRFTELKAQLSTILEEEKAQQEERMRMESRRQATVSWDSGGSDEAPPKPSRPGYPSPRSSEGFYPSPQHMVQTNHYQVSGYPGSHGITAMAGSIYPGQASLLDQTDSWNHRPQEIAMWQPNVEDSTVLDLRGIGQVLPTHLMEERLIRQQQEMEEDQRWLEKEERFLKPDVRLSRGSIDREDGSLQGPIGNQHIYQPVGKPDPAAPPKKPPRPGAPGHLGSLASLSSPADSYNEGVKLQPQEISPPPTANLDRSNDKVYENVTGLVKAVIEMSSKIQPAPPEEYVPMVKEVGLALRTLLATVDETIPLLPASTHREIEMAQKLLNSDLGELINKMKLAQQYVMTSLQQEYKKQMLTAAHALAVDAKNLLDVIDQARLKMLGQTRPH
Chain of UniProt P35916 (whole entry, looked up): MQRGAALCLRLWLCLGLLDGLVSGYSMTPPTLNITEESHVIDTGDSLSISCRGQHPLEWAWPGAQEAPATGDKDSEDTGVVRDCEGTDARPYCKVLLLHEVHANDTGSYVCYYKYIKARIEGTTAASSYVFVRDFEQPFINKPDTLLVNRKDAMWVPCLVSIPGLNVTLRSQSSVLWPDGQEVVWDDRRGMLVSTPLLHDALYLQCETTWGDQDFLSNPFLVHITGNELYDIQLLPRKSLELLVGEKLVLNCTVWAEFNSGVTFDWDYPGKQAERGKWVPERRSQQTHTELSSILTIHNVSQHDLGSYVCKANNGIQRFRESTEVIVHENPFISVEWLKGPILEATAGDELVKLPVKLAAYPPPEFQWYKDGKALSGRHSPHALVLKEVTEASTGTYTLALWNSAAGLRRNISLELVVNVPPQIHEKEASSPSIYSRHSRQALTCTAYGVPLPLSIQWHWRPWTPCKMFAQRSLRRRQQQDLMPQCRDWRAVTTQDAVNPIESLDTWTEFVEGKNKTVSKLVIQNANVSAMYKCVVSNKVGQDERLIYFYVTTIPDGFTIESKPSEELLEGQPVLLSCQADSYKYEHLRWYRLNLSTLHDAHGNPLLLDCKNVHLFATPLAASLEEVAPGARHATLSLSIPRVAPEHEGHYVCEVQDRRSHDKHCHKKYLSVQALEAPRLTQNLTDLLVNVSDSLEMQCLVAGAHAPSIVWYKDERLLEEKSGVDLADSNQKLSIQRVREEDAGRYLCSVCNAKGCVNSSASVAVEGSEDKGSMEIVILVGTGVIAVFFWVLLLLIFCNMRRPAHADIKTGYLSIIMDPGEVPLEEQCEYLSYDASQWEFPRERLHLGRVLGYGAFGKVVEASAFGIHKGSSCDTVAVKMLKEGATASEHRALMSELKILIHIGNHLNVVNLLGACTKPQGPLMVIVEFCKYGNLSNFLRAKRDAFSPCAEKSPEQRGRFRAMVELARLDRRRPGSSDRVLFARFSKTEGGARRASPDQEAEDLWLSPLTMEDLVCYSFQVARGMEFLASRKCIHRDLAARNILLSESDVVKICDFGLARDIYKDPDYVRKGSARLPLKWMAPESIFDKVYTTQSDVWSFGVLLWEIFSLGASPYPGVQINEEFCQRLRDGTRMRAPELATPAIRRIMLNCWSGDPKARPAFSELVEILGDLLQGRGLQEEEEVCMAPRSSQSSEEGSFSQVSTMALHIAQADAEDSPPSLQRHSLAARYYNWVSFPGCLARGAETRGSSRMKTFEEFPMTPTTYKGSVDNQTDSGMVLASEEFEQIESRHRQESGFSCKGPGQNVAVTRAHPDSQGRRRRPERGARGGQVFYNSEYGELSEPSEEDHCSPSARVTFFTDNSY
Chain of UniProt Q9UIK4 (whole entry, looked up): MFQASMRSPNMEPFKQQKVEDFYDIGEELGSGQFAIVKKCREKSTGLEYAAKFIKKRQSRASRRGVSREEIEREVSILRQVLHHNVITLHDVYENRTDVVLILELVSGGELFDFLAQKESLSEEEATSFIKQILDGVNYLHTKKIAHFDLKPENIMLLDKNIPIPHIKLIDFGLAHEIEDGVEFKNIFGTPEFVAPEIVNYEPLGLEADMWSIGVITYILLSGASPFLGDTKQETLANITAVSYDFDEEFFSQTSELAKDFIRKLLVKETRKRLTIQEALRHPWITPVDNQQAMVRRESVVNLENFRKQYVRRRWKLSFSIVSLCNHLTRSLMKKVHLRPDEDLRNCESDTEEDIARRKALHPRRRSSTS
Chain of UniProt O43318 (whole entry, looked up): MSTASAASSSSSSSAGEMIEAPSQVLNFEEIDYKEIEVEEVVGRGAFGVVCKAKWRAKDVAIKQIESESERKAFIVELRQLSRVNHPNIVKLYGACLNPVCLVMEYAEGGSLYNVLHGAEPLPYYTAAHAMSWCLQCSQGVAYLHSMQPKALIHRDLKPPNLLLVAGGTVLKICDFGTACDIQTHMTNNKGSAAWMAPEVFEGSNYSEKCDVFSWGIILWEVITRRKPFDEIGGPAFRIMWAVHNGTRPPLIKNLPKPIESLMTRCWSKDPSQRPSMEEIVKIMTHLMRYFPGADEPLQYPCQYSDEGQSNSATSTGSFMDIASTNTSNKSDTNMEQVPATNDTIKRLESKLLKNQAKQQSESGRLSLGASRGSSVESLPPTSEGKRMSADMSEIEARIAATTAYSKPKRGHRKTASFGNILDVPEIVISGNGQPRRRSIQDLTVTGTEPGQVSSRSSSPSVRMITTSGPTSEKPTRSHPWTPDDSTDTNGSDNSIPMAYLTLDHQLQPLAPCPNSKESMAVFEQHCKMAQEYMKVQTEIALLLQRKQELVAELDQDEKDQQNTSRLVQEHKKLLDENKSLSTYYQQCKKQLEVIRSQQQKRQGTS
Chain of UniProt O75582 (whole entry, looked up): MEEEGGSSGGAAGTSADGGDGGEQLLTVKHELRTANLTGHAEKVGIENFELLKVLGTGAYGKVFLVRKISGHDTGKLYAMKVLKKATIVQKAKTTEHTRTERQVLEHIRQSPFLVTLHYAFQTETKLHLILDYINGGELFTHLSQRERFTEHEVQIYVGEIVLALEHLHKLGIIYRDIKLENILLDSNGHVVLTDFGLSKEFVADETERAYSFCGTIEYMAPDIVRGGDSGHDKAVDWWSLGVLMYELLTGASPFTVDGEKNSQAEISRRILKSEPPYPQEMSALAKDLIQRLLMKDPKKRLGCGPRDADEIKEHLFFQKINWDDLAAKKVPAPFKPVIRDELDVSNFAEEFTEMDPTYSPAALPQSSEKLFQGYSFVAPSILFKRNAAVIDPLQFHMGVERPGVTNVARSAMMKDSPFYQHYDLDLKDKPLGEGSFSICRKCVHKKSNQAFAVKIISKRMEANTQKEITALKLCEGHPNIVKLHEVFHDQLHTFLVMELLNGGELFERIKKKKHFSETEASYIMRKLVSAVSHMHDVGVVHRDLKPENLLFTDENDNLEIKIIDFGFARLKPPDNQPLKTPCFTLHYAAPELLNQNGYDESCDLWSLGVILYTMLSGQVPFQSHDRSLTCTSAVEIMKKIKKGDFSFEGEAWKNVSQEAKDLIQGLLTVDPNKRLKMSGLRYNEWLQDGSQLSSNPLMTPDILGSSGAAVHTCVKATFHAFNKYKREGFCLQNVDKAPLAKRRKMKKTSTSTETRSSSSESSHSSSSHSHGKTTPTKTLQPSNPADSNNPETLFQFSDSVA

Study 1
Species: mouse
Sample: microsomes or S9
Concentration: 2 µM
Time: 0.5 h
With `COc1ccc(CCCNC(=O)c2cnn3cc(Br)cnc23)cc1` the remaining compound was 4.39%.
`CCOC(=O)C1=C(C)N=C2CC(C)(C)CC(O)=C2C1C` (stereo not shown) has a remaining compound of 49.2%.
The remaining compound of `Cc1ccc(-c2cc(NC(=O)c3oc4ccc(F)cc4c3C)on2)cc1` is reported as 66.7%.
`CCC(C)(NCc1nnc(-c2ccc(F)cc2)o1)c1nc(C)cs1` (stereo not shown) gave a remaining compound of 0.0353%.
For `CCC1CN(C(=O)c2cc(S(=O)(=O)N3CCOCC3)cn2C)c2cc(Cl)ccc2O1` (stereo not shown), the remaining compound was 2.67%.

Study 2
Target: Ras GTPase-activating protein-binding protein 1, full length (G3BP1, Homo sapiens, UniProt Q13283)
Chain of UniProt Q13283 (whole entry, looked up): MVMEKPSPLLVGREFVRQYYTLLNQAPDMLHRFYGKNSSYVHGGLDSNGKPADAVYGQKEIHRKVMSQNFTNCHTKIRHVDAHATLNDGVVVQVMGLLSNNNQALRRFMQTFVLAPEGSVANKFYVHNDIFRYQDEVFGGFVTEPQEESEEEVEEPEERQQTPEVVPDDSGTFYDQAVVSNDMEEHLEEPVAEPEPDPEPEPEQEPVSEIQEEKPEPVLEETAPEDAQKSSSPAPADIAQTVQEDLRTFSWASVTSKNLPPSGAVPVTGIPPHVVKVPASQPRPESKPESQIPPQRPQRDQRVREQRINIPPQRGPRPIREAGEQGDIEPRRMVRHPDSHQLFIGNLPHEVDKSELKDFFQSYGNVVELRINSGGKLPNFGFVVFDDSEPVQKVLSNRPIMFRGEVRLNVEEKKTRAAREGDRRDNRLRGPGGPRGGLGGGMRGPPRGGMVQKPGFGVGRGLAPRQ
Method: RNA Bind-n-Seq
Form: RNA
Sample: in vitro
Concentration: 200 nM
Setting: whole 134-nt RNA, ends assumed
Together with: 150 mM KCl
Baseline: input library
Reading: higher = stronger binding
`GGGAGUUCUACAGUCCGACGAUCCACAGACAACACGCACCCACACAGACACAGAGGGAAGGGGUUGGGAAAGGGACAGGGUGCACAGCAGGGCGGGGUAGGACCCCAGCCCCUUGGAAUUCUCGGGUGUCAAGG` gave a log2 enrichment of 1.59.
With `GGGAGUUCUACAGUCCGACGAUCAAGUCCUGUGCUACACAUCGUAUGUACCGAAUCGGAAAAAGGAAAAAGGAAAAAGGAAAGUAUUAUGUUACGCCGUUCGGAUCUGCACUUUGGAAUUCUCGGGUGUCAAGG` the log2 enrichment was -1.23.
`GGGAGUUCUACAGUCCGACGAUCAGUCACUUUUUAAUUUUAUUUAUUAUUUCUCCUCUUAGACCGCAGGAUGGAAACAAGCCCACUGAGACUAGUCAACCUCAAUCUAGCACAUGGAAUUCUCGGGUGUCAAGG` gave a log2 enrichment of 0.818.
The log2 enrichment of `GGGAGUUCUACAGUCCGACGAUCGCAGGAAGUAAAAACAAAUGGAAAUGCUUCGGAUAGUGGCAGGGGUGGGGGUUGCUAAGGAGAGGGUGGGAUGGGAGUGGGUAAAGAGUUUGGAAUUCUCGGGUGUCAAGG` is reported as 0.877.
`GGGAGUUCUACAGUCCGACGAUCCAAGUCCUGUGCUACACAUCGUAUGUACCGAAUCGUGUGUGUGUGUGUGUGUGUGUAAAGUAUUAUGUUACGCCGUUCGGAUCUGCACUUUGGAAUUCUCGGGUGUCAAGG` has a log2 enrichment of 0.403.
`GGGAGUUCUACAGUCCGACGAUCUGUGCUACACAUCGUAUGUACCGAAUCGUGUGUGUGUGUGUGUGUGUGUGUGUGUGUGUGUGUAAAGUAUUAUGUUACGCCGUUCGGAUCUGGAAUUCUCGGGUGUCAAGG` gave a log2 enrichment of 0.802.
The log2 enrichment of `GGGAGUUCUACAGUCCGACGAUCUCAAGUCCUGUGCUACACAUCGUAUGUACCGAAUCGGGGCCGGCCGGGGCCGGGGAAAGUAUUAUGUUACGCCGUUCGGAUCUGCACUUCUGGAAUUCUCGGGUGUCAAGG` is reported as -0.589.
The log2 enrichment of `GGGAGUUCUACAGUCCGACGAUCGUCCUGUGCUACACAUCGUAUGUACCGAAUCGGGUUUUUUUGGGAAAAAAAGGGUGGGAAAGUAUUAUGUUACGCCGUUCGGAUCUGCACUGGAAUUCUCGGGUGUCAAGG` is reported as -0.195.

Study 3
SMILES: CN([C@@H]1CCc2c(CC(=O)O)c3cc(S(C)(=O)=O)ccc3n2C1)S(=O)(=O)c1ccc(F)cc1
Concentration: 1 µM
FLT3 (Homo sapiens, UniProt P36888, R834Q); cell-free assay, competition with immobilised ligand — remaining binding: 100%.
It gave 100% for remaining binding (SYK (Homo sapiens, UniProt P43405); cell-free assay, competition with immobilised ligand).
For CDC42BPA (Homo sapiens, UniProt Q5VT25); cell-free assay, competition with immobilised ligand: remaining binding read 100%.
The remaining binding was 100% (PKMYT1 (Homo sapiens, UniProt Q99640); cell-free assay, competition with immobilised ligand).
For DAPK2 (Homo sapiens, UniProt Q9UIK4); cell-free assay, competition with immobilised ligand: remaining binding read 100%.
It gave 100% for remaining binding (CHEK1 (Homo sapiens, UniProt O14757); cell-free assay, competition with immobilised ligand).
The remaining binding was 98% (PI4KB (Homo sapiens, UniProt Q9UBF8); cell-free assay, competition with immobilised ligand).
The remaining binding was 91% (TYRO3 (Homo sapiens, UniProt Q06418); cell-free assay, competition with immobilised ligand).
For SGK1 (Homo sapiens, UniProt O00141); cell-free assay, competition with immobilised ligand: remaining binding read 100%.
It gave 100% for remaining binding (MERTK (Homo sapiens, UniProt Q12866); cell-free assay, competition with immobilised ligand).
For Ribosomal protein S6 kinase alpha-5, C-terminal kinase domain (RPS6KA5, Homo sapiens, UniProt O75582); cell-free assay, competition with immobilised ligand: remaining binding read 71%.
CDK19 (Homo sapiens, UniProt Q9BWU1); binder, KINOMEscan competition binding; baseline: DMSO — remaining binding: 100%.
The remaining binding was 100% (PIK3CB (Homo sapiens, UniProt P42338); cell-free assay, competition with immobilised ligand).
It gave 100% for remaining binding (PIP5K1A (Homo sapiens, UniProt Q99755); cell-free assay, competition with immobilised ligand).
The remaining binding was 100% (ACVR2B (Homo sapiens, UniProt Q13705); cell-free assay, competition with immobilised ligand).
The remaining binding was 76% (Tyrosine-protein kinase ABL1, phosphorylated (ABL1, Homo sapiens, UniProt P00519, F317I); binding).
EPHB6 (Homo sapiens, UniProt O15197); cell-free assay, competition with immobilised ligand — remaining binding: 82%.
It gave 99% for remaining binding (PTK2 (Homo sapiens, UniProt Q05397); cell-free assay, competition with immobilised ligand).
The remaining binding was 100% (MAPK4 (Homo sapiens, UniProt P31152); cell-free assay, competition with immobilised ligand).
IGF1R (Homo sapiens, UniProt P08069); cell-free assay, competition with immobilised ligand — remaining binding: 98%.
For PAK5 (Homo sapiens, UniProt Q9P286); cell-free assay, competition with immobilised ligand: remaining binding read 100%.
It gave 90% for remaining binding (MAP3K5 (Homo sapiens, UniProt Q99683); cell-free assay, competition with immobilised ligand).
The remaining binding was 100% (MAP3K7 (Homo sapiens, UniProt O43318); cell-free assay, competition with immobilised ligand).
LATS1 (Homo sapiens, UniProt O95835); cell-free assay, competition with immobilised ligand — remaining binding: 61%.
It gave 100% for remaining binding (FLT4 (Homo sapiens, UniProt P35916); cell-free assay, competition with immobilised ligand).

Study 4
Target: Casein kinase II subunit alpha (CSNK2A1, Homo sapiens, UniProt P68400)
Chain of UniProt P68400 (whole entry, looked up): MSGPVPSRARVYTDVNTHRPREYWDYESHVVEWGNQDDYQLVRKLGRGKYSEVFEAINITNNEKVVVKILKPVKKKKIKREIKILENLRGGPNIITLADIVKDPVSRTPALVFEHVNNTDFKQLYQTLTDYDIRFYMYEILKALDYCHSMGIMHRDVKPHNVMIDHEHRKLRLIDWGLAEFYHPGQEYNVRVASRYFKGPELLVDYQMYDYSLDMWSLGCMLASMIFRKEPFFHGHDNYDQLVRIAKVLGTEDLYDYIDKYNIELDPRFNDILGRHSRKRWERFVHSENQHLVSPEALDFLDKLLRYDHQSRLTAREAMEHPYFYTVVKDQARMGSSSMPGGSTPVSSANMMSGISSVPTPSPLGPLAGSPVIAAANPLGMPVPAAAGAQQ
Observed: enzyme activity
Mode: inhibitor
Concentration: 0.5 µM
Baseline: control
`COc1cc2nccc(Oc3ccc(NC(=S)NC(=O)c4ccccc4C)cc3)c2cc1OC` has a remaining activity of 98.9%.
With `CN(C)c1ccc(C=C2C(=O)Nc3ccccc32)cc1` the remaining activity was 89.7%.
`COc1ccc(C(=O)Nc2sc3c(c2C(N)=O)CCCC3)cc1OC` has a remaining activity of 98.8%.
`O=C1NC(=O)C(c2cn(CCCO)c3ncccc23)=C1c1cnccn1` gave a remaining activity of 78.9%.
With `Cc1cccc(-c2[nH]c(C(C)(C)C)nc2-c2ccc3c(c2)OCO3)n1` the remaining activity was 98%.
The remaining activity of `Cc1ccc(Nc2nccc(N(C)c3ccc4c(C)n(C)nc4c3)n2)cc1S(N)(=O)=O` is reported as 114%.
The remaining activity of `Cn1sc(=O)n(Cc2ccccc2)c1=O` is reported as 95.4%.
The remaining activity of `Cc1nc(-c2ccccc2)c(-c2ccncc2)o1` is reported as 109%.
With `CO[C@H]1C[C@@H]2CC[C@@H](C)[C@@](O)(O2)C(=O)C(=O)N2CCCC[C@H]2C(=O)O[C@H]([C@H](C)C[C@@H]2CC[C@@H](O)[C@H](OC)C2)CC(=O)[C@H](C)/C=C(\C)[C@@H](O)[C@@H](OC)C(=O)[C@H](C)C[C@H](C)/C=C/C=C/C=C/1C` the remaining activity was 94.7%.
With `Oc1ccc(-c2nc(-c3ccncc3)c(-c3ccc(F)cc3)[nH]2)cc1` the remaining activity was 92.4%.
`Cc1ccc(NC(=O)c2ccc(CN3CCN(C)CC3)cc2)cc1Nc1nc(-c2cccnc2)cs1` has a remaining activity of 99.2%.
`Nc1[nH]nc2nc3ccccc3nc12` gave a remaining activity of 87.6%.
For `CCOC(=O)c1c(C)[nH]c(/C=C2\C(=O)Nc3ccccc32)c1C`, the remaining activity was 114%.
The remaining activity of `N#CC(C#N)=C(N)/C(C#N)=C/c1ccc(O)cc1` is reported as 104%.
For `Nc1ncnc2n[nH]c(Nc3ccc(F)cc3)c12`, the remaining activity was 89.9%.

Further values, each from its own experiment
`CN(N=O)C(=O)N[C@@H]1[C@@H](O)[C@H](O)[C@@H](CO)O[C@@H]1O` gave a blood glucose of 505 mg/dL and 325 mg/dL and 398 mg/dL and 298 mg/dL and 403 mg/dL (mice, STZ diabetic neuropathy; dose not given, 3 days after STZ).
`CC(C)n1cnc(-c2ccc(F)cc2)c1-c1ncc(C(=O)Nc2ccc(N3CCN(C)CC3)cc2)[nH]1` — result for “cardiac failure incidence”: 0% (IPF patients; 30 mg once daily, adverse event).
